Published values gathered from unrelated publications.
Compare with care: the assays were run in different laboratories. ± marks the error that the study gave. Non-standard residues stand in square brackets, D forms with d. Square brackets hold non-standard residues; d marks the D form. Bridges are numbered along the chain shown (N, C = ends). Primed or numbered codes have the meaning given here. Where no end group is shown, it is not given here. Ends that are not written are not given here. No end group written: not given here. [ ]: non-standard residue; d: D form. * marks the point of attachment.
Rbpj: Rbpj 53-474 (Mus musculus, UniProt P31266)
Chain of UniProt P31266 (whole entry, looked up): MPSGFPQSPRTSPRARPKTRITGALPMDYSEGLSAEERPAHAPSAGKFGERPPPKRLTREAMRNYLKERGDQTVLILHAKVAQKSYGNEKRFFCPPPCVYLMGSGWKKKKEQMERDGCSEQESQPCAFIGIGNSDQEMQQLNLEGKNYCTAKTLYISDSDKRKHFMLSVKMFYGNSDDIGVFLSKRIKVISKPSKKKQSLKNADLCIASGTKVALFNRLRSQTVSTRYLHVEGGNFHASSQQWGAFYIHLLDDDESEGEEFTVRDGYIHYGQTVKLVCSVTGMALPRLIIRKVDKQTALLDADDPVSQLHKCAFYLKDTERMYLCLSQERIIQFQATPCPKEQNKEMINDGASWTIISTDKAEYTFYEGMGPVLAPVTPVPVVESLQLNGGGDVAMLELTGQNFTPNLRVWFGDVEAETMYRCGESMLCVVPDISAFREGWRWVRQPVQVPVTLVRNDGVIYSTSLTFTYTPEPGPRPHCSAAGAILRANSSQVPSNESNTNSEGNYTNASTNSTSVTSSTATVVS
BIRC5: BIRC5 1-142 (Homo sapiens, UniProt O15392)
Chain of UniProt P12004 (whole entry, looked up): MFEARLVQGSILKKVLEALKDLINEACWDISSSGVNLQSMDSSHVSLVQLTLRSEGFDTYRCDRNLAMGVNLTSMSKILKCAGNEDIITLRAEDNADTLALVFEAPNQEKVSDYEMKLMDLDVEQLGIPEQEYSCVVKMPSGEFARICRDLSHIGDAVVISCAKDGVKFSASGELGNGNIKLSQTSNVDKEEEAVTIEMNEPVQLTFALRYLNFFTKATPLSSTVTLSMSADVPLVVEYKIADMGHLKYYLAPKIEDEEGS
Chain of UniProt O15392 (whole entry, unmodified, looked up): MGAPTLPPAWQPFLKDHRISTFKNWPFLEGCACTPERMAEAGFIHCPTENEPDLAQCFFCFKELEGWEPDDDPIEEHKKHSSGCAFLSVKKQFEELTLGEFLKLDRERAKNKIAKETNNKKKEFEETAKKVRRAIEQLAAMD
Chain of UniProt P10415 (whole entry, looked up): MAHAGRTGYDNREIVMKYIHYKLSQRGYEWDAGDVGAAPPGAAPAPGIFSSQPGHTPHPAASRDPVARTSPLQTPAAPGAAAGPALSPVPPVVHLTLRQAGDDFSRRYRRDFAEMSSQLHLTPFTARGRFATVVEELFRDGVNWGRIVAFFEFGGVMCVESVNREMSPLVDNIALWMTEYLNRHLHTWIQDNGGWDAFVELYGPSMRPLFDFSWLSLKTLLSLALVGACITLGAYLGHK
Chain of UniProt Q14145 (whole entry, looked up): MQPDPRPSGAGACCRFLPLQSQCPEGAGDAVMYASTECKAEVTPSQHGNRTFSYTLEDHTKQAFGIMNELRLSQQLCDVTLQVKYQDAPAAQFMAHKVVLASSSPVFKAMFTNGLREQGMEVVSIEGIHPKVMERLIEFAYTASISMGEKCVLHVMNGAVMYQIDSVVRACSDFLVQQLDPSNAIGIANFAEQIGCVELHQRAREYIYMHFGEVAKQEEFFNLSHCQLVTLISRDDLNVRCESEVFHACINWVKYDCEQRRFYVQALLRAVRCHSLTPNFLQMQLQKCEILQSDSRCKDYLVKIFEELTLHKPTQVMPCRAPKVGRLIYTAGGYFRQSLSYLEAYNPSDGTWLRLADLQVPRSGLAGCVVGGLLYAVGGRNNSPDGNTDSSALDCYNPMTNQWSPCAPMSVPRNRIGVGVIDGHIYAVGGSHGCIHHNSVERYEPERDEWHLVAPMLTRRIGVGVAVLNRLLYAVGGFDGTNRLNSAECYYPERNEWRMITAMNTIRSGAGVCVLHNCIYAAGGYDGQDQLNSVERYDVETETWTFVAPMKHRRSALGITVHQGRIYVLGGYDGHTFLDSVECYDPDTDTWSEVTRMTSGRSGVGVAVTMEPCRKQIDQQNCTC
Chain of UniProt Q9BTC0 (whole entry, looked up): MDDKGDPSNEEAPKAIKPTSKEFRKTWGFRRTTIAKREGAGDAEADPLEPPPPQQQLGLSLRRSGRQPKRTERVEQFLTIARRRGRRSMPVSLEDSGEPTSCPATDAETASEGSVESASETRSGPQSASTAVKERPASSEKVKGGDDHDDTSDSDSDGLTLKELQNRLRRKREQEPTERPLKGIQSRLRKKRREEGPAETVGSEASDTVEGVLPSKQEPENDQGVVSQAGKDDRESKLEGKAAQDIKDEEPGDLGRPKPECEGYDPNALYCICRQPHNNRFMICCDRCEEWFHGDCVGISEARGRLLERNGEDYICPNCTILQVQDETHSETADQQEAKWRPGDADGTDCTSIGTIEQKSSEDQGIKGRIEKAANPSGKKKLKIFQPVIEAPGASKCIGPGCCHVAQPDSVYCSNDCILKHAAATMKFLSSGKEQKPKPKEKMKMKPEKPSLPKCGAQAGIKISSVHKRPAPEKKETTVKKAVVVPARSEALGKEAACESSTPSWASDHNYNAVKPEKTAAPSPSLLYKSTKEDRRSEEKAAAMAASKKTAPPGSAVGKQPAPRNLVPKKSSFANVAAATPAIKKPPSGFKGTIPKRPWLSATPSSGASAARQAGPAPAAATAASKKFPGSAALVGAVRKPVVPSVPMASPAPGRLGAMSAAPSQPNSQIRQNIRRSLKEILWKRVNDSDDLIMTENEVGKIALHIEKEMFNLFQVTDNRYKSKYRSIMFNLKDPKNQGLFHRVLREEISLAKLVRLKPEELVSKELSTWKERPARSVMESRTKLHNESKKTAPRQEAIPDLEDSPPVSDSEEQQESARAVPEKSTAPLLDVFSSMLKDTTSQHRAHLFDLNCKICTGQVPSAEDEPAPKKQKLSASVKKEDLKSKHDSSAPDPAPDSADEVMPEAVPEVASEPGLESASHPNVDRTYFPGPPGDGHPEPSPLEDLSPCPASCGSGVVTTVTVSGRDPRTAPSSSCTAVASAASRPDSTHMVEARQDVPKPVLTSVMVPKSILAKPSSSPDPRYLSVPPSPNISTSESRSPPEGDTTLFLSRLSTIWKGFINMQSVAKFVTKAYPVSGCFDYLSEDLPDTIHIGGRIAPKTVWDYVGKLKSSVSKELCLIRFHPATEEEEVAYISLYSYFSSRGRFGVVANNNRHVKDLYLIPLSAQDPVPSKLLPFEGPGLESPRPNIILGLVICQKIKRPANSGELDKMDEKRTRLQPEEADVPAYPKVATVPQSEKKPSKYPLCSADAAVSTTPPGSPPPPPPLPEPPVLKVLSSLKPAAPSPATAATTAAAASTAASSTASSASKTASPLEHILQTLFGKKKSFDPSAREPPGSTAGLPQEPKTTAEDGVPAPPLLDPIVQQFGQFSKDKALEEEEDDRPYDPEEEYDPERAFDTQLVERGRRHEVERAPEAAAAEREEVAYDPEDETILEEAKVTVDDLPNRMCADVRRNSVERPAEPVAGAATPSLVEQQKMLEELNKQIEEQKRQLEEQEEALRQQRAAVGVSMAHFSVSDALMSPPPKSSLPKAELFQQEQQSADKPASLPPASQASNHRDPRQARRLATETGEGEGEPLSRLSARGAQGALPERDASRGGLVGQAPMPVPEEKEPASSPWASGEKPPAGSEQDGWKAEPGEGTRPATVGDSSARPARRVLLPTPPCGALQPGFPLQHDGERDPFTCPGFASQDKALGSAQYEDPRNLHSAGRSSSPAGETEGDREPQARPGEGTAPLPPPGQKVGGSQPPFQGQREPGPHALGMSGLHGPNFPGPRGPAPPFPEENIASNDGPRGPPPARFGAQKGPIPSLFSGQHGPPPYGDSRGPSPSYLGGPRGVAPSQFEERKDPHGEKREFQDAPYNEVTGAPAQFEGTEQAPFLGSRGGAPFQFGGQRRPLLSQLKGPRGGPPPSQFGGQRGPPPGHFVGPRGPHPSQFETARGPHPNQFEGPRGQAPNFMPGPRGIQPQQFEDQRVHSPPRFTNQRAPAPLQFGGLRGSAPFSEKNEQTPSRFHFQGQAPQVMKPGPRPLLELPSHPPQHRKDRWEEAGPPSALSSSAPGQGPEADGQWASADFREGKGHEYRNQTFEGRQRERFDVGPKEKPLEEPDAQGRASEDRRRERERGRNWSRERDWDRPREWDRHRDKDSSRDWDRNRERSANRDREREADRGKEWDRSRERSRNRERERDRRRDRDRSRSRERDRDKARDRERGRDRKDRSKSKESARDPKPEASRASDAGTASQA
Chain of UniProt P24158 (whole entry, looked up): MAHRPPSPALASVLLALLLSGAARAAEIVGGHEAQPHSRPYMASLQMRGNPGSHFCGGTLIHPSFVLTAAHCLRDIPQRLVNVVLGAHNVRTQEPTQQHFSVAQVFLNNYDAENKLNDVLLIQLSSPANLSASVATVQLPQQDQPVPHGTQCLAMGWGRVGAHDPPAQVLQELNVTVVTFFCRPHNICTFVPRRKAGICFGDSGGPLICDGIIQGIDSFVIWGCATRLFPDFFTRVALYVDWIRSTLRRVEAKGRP
Chain of UniProt Q99828 (whole entry, looked up): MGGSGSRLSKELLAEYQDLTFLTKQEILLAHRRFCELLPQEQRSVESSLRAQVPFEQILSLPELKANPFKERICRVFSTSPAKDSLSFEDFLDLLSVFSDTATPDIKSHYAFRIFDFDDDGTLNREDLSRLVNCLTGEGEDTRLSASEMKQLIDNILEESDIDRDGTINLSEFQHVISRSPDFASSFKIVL

With `Dansyl-TKQEEF[pY]A (SDC1 peptide residues 303-310 (Homo sapiens); pY309/N-terminal dansyl; Dansyl = CN(C)c1cccc2c(S(=O)(=O)*)cccc12; pY = N[C@@H](Cc1ccc(OP(=O)(O)O)cc1)C(=O)O)` the Kd was 19300 ± 1500 nM (TIAM1 841-930 (Homo sapiens, UniProt Q13009); fluorescence anisotropy; peptide; 25 °C).
For `melittin`, the partitioning enthalpy was -4.7 kcal/mol (isothermal titration calorimetry; POPC/POPG LUVs 50:50%; 100 µM, pH 7.0, 25 °C).
With `ARTK(Me3)QTARKSTG (histone H3 2-13 (UniProt P68431); K4me3; Me3 = trimethyl-lysine; sequence looked up)` the Kd was 1300 nM (DIDO1 266-325 (Homo sapiens, UniProt Q9BTC0); intrinsic tryptophan fluorescence titration; peptide; pH 7.5, 25 °C).
With `YAG[pS][pT]DEN[pT]D[pS]E (XRCC1 residues 515-526 (Homo sapiens); pS518/pT519/pT523/pS525; pS = N[C@@H](COP(=O)(O)O)C(=O)O; pT = C[C@@H](OP(=O)(O)O)[C@H](N)C(=O)O)` the Kd was 100 nM (PNKP (Homo sapiens, UniProt Q96T60); ITC; peptide).
For `MYSSTDHILNKFLILHYALNPT (peptide)`, the Kd was 0.249 nM (CD274 extracellular domain (Homo sapiens); BLI; peptide).
For `MENVKKATATTTWMVPTAQ (L3MBTL3 52-70 (Homo sapiens, UniProt Q96JM7-2); sequence looked up)`, the Kd was 900 nM (Rbpj; ITC; peptide; pH 6.5, 25 °C, NaCl 150 mM, DMSO 5%).
`Ac-QTSMTDFYHS-NH2 (p21 peptide 144-153 (Homo sapiens); N-acetyl, C-terminal amide)` gave a Kd of 32900 nM (PCNA 1-261 (Homo sapiens, UniProt P12004); ITC; peptide; pH 7.4, 25 °C, NaCl 100 mM).
`MENVKKATATTTWMVPTAA (L3MBTL3 52-70 Q70A (Homo sapiens, UniProt Q96JM7-2); sequence looked up)` has a Kd of 940 nM (Rbpj; ITC; peptide; pH 6.5, 25 °C, NaCl 150 mM, one site model).
The Kd of `MWSRSDHNLNKFWILHYSANPS (peptide)` is reported as 0.303 nM (CD274 extracellular domain (Homo sapiens); BLI; peptide).
`AR[pT]KQTARKSTGGKA (histone H3 2-16 (UniProt P68431); pT3; pT = C[C@@H](OP(=O)(O)O)[C@H](N)C(=O)O; sequence looked up)` gave a Kd of 93400 ± 6500 nM (BIRC5 E65A (Homo sapiens, UniProt O15392); ITC; peptide; pH 7.5, 25 °C, NaCl 100 mM).
With `KRRDSKITDHFHSKR-NH2 (CDKN1A/PARG (Homo sapiens); C-terminal amide)` the Kd was 90 nM (PCNA (Homo sapiens, UniProt P12004); SPR; peptide).
The inhibition of `NSRQTDR` is reported as 0% (peptide, human polyclonal IgM RF WEAK; concentration not given, 5 µg/mL mAb II-481 coated, together with: RF at 50% max binding concentration).
The Kd of `{FITC′}-KETKPLVHPNKNRTRGPRRKLPTRV (BSP1 552-576 (Saccharomyces cerevisiae); N-terminal FITC; FITC′ = fluorescein isothiocyanate)` is reported as 34 nM (CAP1/CAP2 (Saccharomyces cerevisiae); fluorescence polarisation; peptide).
`KRRQGRLDDFFHSKR-NH2 (CDKN1A/FEN1 (Homo sapiens); C-terminal amide)` has a Kd of 166 nM (PCNA (Homo sapiens, UniProt P12004); SPR; peptide).
The Kd of `FSRSLHSLL (NR4A1 489-497 (UniProt P22736); D-Arg octamer fusion; sequence looked up)` is reported as 2100 ± 200 nM (BCL2 (Homo sapiens, UniProt P10415); circular dichroism; peptide; pH 7.6).
`RmS-3, glycosylated (Rhipicephalus microplus)` gave a protease inhibition of under 20% (kallikrein (Sus scrofa); chromogenic substrate hydrolysis, inhibitor; 1 µM).
`MENVAKATATTTWMVPTAQ (L3MBTL3 52-70 K56A (Homo sapiens, UniProt Q96JM7-2); sequence looked up)` gave a Kd of 1800 nM (Rbpj; ITC; peptide; pH 6.5, 25 °C, NaCl 150 mM, DMSO 5%).
`MAAGLRYGKRAFVYGEPPFGYQDILNKLEDEGFPK (REV3 510-544 (Saccharomyces cerevisiae, UniProt P14284))` gave a Kd of 3000 ± 1800 nM (REV7 1-245 (Saccharomyces cerevisiae, UniProt P38927); ITC; peptide; pH 8.4, 25 °C, NaCl 100 mM).
With `AR[pT]KQTARKSTG (H3C1 1-12; pT3; pT = C[C@@H](OP(=O)(O)O)[C@H](N)C(=O)O)` the Kd was 1450 ± 30 nM (BIRC5; ITC; peptide; pH 6.8, 25 °C).
For `RmS-6, glycosylated (Rhipicephalus microplus)`, the protease inhibition was under 20% (PRTN3 (Homo sapiens, UniProt P24158); chromogenic substrate hydrolysis, inhibitor; 1 µM).
The Kd of `KRRKGLIDYYLHSKR-NH2 (CDKN1A/POLI (Homo sapiens); C-terminal amide)` is reported as 111 nM (PCNA (Homo sapiens, UniProt P12004); SPR; peptide).
`SLEEPHSPETGEKVVAGEVN (AMER1 20-residue peptide; pS286)` has a Kd of 1500 nM (KEAP1 321-609 (Homo sapiens, UniProt Q14145); ITC; peptide; pH 7, 25 °C, NaCl 100 mM).
For `CNSRQTDREDELI`, the inhibition was 0% (peptide, human polyclonal IgM RF LOP; concentration not given, 5 µg/mL mAb II-481 coated, together with: RF at 50% max binding concentration).
For `EDGGSFWAGAMKALYG (designed peptide)`, the Kd was 104 nM (CIB1 (Homo sapiens, UniProt Q99828); ITC; peptide; 25 °C, together with: CaCl2 0.1 mM).
`MEAVKKATATTTWMVPTAQ (L3MBTL3 52-70 N54A (Homo sapiens, UniProt Q96JM7-2); sequence looked up)` gave a Kd of 470 nM (Rbpj; ITC; peptide; pH 6.5, 25 °C, NaCl 150 mM, one site model).
`AR[pT]K(Ac)QTARKSTG (histone H3 2-13 (UniProt P68431); pT3, acetyl K4; pT = C[C@@H](OP(=O)(O)O)[C@H](N)C(=O)O; sequence looked up)` has a Kd of 15400 ± 800 nM (BIRC5; ITC; peptide; pH 7.2).
`RLIEDICLPRWGCLWEDDK-NH2 (cyclic albumin-binding peptide; disulfide 7-13; Cys7-Cys13 disulfide, C-terminal amide)` has a Kd of 65 nM (Alb (Mus musculus, UniProt P07724); SPR; peptide).

Some of these lines once more:
The Kd of `FSRSLHSLL (NR4A1 489-497 (UniProt P22736); D-Arg octamer fusion; sequence looked up)` is reported as 2100 ± 200 nM (BCL2 (Homo sapiens, UniProt P10415); circular dichroism; peptide; pH 7.6).
`SLEEPHSPETGEKVVAGEVN (AMER1 20-residue peptide; pS286)` has a Kd of 1500 nM (KEAP1 321-609 (Homo sapiens, UniProt Q14145); ITC; peptide; pH 7, 25 °C, NaCl 100 mM).
`RLIEDICLPRWGCLWEDDK-NH2 (cyclic albumin-binding peptide; disulfide 7-13; Cys7-Cys13 disulfide, C-terminal amide)` has a Kd of 65 nM (Alb (Mus musculus, UniProt P07724); SPR; peptide).
For `MYSSTDHILNKFLILHYALNPT (peptide)`, the Kd was 0.249 nM (CD274 extracellular domain (Homo sapiens); BLI; peptide).
